Results from different studies.
Compare with care: the assays were run in different laboratories. ± gives the spread as reported.
UniProt Q15391, sequence (whole entry, unmodified, looked up): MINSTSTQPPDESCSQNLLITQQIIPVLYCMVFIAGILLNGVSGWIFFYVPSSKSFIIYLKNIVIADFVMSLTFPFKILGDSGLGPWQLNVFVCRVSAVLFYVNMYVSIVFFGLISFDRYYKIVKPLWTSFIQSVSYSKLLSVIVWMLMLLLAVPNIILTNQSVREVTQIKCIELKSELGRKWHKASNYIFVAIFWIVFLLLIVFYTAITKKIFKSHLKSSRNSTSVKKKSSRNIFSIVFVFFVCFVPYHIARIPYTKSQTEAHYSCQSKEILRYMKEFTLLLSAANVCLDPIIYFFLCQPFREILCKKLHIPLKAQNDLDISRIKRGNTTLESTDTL
UniProt O60674, sequence (whole entry, unmodified, looked up): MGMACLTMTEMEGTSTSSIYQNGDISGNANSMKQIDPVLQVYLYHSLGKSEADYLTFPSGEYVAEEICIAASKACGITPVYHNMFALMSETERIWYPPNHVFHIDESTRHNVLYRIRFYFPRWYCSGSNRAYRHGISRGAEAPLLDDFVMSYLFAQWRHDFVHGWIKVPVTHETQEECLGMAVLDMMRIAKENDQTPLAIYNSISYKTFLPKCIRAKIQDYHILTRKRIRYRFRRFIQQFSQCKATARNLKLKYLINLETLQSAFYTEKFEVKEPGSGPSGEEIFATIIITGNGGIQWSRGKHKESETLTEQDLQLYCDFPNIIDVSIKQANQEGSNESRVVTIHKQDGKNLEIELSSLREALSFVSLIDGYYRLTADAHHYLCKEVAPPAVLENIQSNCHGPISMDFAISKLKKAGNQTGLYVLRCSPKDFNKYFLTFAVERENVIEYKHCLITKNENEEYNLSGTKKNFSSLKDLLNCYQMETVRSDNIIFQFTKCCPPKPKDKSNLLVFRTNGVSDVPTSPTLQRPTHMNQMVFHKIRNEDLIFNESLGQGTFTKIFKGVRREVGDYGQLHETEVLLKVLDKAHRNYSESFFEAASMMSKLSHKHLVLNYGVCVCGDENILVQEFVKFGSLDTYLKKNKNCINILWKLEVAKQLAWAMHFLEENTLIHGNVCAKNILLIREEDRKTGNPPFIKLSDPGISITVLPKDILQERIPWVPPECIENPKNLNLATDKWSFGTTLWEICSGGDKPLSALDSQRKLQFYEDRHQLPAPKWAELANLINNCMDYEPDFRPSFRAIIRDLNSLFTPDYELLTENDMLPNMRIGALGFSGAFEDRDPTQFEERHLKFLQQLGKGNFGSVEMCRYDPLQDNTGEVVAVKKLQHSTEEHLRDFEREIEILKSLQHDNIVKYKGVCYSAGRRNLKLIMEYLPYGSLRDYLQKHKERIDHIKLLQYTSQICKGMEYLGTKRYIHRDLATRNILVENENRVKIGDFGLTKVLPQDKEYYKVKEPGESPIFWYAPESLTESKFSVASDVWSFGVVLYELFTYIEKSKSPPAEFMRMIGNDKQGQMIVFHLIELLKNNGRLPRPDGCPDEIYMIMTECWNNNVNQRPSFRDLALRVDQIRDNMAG

The viability of `COc1c(O)cc2c(c1O)C(=O)c1c(cc(C)c(O)c1OC)C2=O` is reported as 64.9 ± 6.83% (HK-2 co-cultured with HepaRG; MTT; 66.67 µM, 48 h; relative to: untreated control).
`CCCCc1oc2ccc(NS(C)(=O)=O)cc2c1C(=O)c1ccc(OCCCN(CCCC)CCCC)cc1` has an ALERT score of 10 (H9 human embryonic stem cell aggregates; qRT-PCR; 3D aggregates; 0.2 µM, 5 days, developmental toxicity model; direction not given).
For `COc1cc(O)c2c(c1)C(=O)c1cc(C)cc(O)c1C2=O`, the viability was 97.1 ± 13% (HK-2 co-cultured with HepaRG; MTT; 133.33 µM, 24 h; relative to: untreated control).
The AUC(0-inf) of `CC(C)[C@H](NC(=O)[C@@H](NC(=O)CCCc1cn(CC(O)CN2CCN(CC(=O)O)CCN(CC(=O)O)CCN(CC(=O)O)CC2)nn1)[C@@H](C)O)C(=O)N[C@@H](CCCNC(=N)N)C(=O)N[C@H](C(=O)N[C@@H](CO)C(=O)N[C@@H](C)C(=O)N[C@@H](CC(=O)O)C(=O)O)[C@@H](C)O` (stereo partly drawn) is reported as 1020 ± 244 µg·h/mL (healthy male humans, plasma; intravenous, 0.04 mmol/kg).
`c1csc(CNc2cc[nH]n2)c1`: “cells with structural aberrations” 5% (human peripheral blood lymphocytes, female; 2160 µg/mL, 4 h, without S9).
Under “fold change in expression”, `Cn1cc(-c2ccc(-c3cncc(Cl)c3N3CCC4(CCNC4=O)CC3)cc2)cn1` is recorded as -2.5 (COLO 205; microarray, item: OXTR; concentration not given, 2 h, gene set OTR; relative to: untreated cells).
`O=C(Nc1nc2cccc(-c3ccc(CN4CCS(=O)(=O)CC4)cc3)n2n1)C1CC1` — result for “treatment-emergent adverse events”: 0% (item: lipase increased; human rheumatoid arthritis patients; oral, 150 mg once daily, 4 weeks, regardless of relatedness).
With `CC(C)C[C@H](NC(=O)C[C@H](O)[C@H](CC(C)C)NC(=O)[C@H](Cc1c[nH]cn1)NC(=O)CNC(=O)[C@@H](NC(=O)[C@H](C)NC(=O)[C@H](Cc1c[nH]c2ccccc12)NC(=O)[C@H](CCC(N)=O)NC(=O)[C@@H](Cc1ccccc1)NC(=O)COCCOCCNC(=O)CCC(C(=O)O)N1CCN(CC(=O)O)CCN(CC(=O)O)CCN(CC(=O)O)CC1)C(C)C)C(N)=O` (stereo partly drawn) [lutetium-177 labelled] the tissue uptake was 10 ± 2 %ID/g (female BALB/c nu/nu mice, tumor; intravenous, 50 pmol, 1 h).
For `N#Cc1ccc(Nc2nc(N)cc(Oc3ccc(-c4ccc(C#N)cc4)cc3Cl)n2)cc1`, the CC50 was 6.4 µM (MT4 uninfected).
`CCc1cc(C(=O)NC)c2nccc(N3CCc4c(cc(Cn5ccnc5)cc4-c4cn(C)nc4C(F)(F)F)C3=O)c2c1` — result for “serum UA level”: 288 ± 27.3 µmol/L (Sprague Dawley rats; oral, 100 mg/kg once daily, 7 days).
The AUC(0-t) mean of `CC[C@H]1[C@@H](O)[C@@H]2[C@H](CC[C@]3(C)[C@@H]([C@H](C)CCNC(=O)NS(=O)(=O)c4ccc(C(C)(C)C)cc4)CC[C@@H]23)[C@@]2(C)CC[C@@H](O)C[C@@H]12` is reported as 0.387 µg·h/mL (ATP-dependent translocase ABCB1 (ABCB1, Homo sapiens, UniProt P08183); substrate; human, plasma; dose not given, together with: quinidine).
With `O=C(O)c1cc(O)c2c(c1)C(=O)c1cccc(O[C@@H]3O[C@H](CO)[C@@H](O)[C@H](O)[C@H]3O)c1C2=O` the cell viability was 80.5 ± 4.03% (HK-2 co-cultured with HepaRG; MTT; 33.33 µM, 48 h; relative to: untreated control).
With `CC(C)C[C@H](NC(=O)C[C@H](O)[C@H](CC(C)C)NC(=O)[C@H](Cc1c[nH]cn1)NC(=O)CNC(=O)[C@@H](NC(=O)[C@H](C)NC(=O)[C@H](Cc1c[nH]c2ccccc12)NC(=O)[C@H](CCC(N)=O)NC(=O)[C@@H](Cc1ccccc1)NC(=O)COCCOCCNC(=O)CN1CCN(CC(=O)O)CCN(CC(=O)O)CCN(CC(=O)O)CC1)C(C)C)C(N)=O` [lutetium-177 labelled] the tissue uptake was 0.19 ± 0.02 %ID/g (female BALB/c nu/nu mice, spleen; intravenous, 50 pmol, 1 h).
Under “revertant colonies per plate”, `CC[C@H](CO)N(CCN(N=O)[C@H](CC)CO)N=O` is recorded as 11 ± 6 (Salmonella typhimurium; mutagenicity, Ames plate incorporation; TA1537; 50 µg/plate, without S9, methanol).
With `COc1cc2c(c(O)c1OC)C(=O)c1c(cc(C)c(O)c1OC)C2=O` the cell viability was 36.3 ± 4.84% (HK-2 co-cultured with HepaRG; MTT; 66.67 µM, 48 h; relative to: untreated control).
`Cc1cc(Nc2ccc(S(F)(F)(F)(F)F)cc2)n2nc(C(C)(F)F)nc2n1`: “patients with QTcB above threshold” 10% (Plasmodium falciparum; 12-lead Holter ECG; human malaria patients; oral, 400 mg, QTc above 450 ms).
`CN1CCN(c2ccc(Nc3ncc4cc(C#N)c(=O)n(C5CCCC5)c4n3)cc2)CC1` gave an IC50 of 3.69 µM (Tyrosine-protein kinase JAK2 (JAK2, Homo sapiens, UniProt O60674, V617F)).
`O=c1ccn([C@@H]2O[C@H](COP(=O)(O)OP(=O)(O)O[C@H]3O[C@H](CO)[C@@H](O)[C@H](O)[C@H]3O)[C@@H](O)[C@H]2O)c(=S)[nH]1` gave a Ki of over 3 µM (P2Y purinoceptor 14 (P2RY14, Homo sapiens, UniProt Q15391, Y102A)).

A few entries again:
`O=C(Nc1nc2cccc(-c3ccc(CN4CCS(=O)(=O)CC4)cc3)n2n1)C1CC1` — result for “treatment-emergent adverse events”: 0% (item: lipase increased; human rheumatoid arthritis patients; oral, 150 mg once daily, 4 weeks, regardless of relatedness).
With `CC(C)C[C@H](NC(=O)C[C@H](O)[C@H](CC(C)C)NC(=O)[C@H](Cc1c[nH]cn1)NC(=O)CNC(=O)[C@@H](NC(=O)[C@H](C)NC(=O)[C@H](Cc1c[nH]c2ccccc12)NC(=O)[C@H](CCC(N)=O)NC(=O)[C@@H](Cc1ccccc1)NC(=O)COCCOCCNC(=O)CCC(C(=O)O)N1CCN(CC(=O)O)CCN(CC(=O)O)CCN(CC(=O)O)CC1)C(C)C)C(N)=O` (stereo partly drawn) [lutetium-177 labelled] the tissue uptake was 10 ± 2 %ID/g (female BALB/c nu/nu mice, tumor; intravenous, 50 pmol, 1 h).
For `N#Cc1ccc(Nc2nc(N)cc(Oc3ccc(-c4ccc(C#N)cc4)cc3Cl)n2)cc1`, the CC50 was 6.4 µM (MT4 uninfected).
